Results of several laboratories.
Each numbered part is a random draw from the data of one study; scales do not carry over between parts.

Series 1 — technique: protein binding microarray; form: double-stranded DNA, one strand shown; sample: in vitro; concentration: not given; reference: not given; direction: higher = stronger binding; measurement: E-score
Target: Histone acetyltransferase KAT6A, winged helix 2, GST fusion (KAT6A, Homo sapiens, UniProt Q92794, residues 85-181)
Notes: 8-mer, flanks averaged, mean of 2 arrays, mostly near background
Construct (chain): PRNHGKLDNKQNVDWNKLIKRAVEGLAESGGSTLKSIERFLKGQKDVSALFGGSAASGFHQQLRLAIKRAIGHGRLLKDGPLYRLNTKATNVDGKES
GGGCTGTA: -0.173
AGCTAAAT: -0.0767
GAGAACGC: 0.0817
CCAATGTC: -0.058
AACTCCAG: 0.0087
GTCACACA: -0.0657
TGCCACAA: 0.139
GACACTCA: -0.021
ACGTTCCG: -0.268
ATCTCAGA: 0.0273
CAAACTTG: 0.149
CACTGGCC: 0.106
ATCTAAAT: 0.11
AACGTTTC: -0.0887
AGCCGTCC: 0.0534
CACACCAA: -0.025
ACGATTCT: -0.0871
AAAATACA: -0.0136
GACCCCAC: 0.0982
ATCCTCCC: -0.0533
CGGGATAC: 0.0189
CCGCGCAA: -0.0262

Series 2 — technique: RNA Bind-n-Seq; form: RNA; sample: in vitro; concentration: 365 nM; reference: no-protein control; direction: higher = stronger binding; measurement: RBNS enrichment (R)
Target: RNA binding protein fox-1 homolog 2, RRM domain, GST-SBP tag (RBFOX2, Homo sapiens, UniProt O43251-10, residues 100-194)
Notes: natural RNA segment, single round, ends assumed
Target sequence (chain): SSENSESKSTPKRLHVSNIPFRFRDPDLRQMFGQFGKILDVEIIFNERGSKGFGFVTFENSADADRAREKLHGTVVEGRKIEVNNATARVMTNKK
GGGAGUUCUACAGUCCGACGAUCACAAAUCUUGUGGAAAUCCGAUAUGUUUUAAUGUGGCUACCUAGGUUUAAGGUUCACGUUAGUCCCCCCAUUCCAUCUAGAAGUCCAUUUUGAAAGAUUUUUGUAAAUUCUGGAAUUCUCGGGUGCCAA: 0.298
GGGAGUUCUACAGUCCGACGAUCGCGAGACUCCUUGGUCUCAUUUGCCUUCACUUUGCAUUUGUUAGUGACCUCCACUAACCCCCACUUCCAUGCAUAUUGACGAGGGAUCUAGUCUAAGUAAGAAUGUCUUUUGGAAUUCUCGGGUGCCAA: 0.69
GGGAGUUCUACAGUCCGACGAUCAUAUAUCAGCAGAGGCUUACCAAAGUCAUACCUGCUCUCCUCCACUAUUCUCUUCCAGAGUUUUCUUCAACUUCCAUCUUAUAAACCAAGGUAUUUAAAUUGUUCAUCUUUGGAAUUCUCGGGUGCCAA: 0.674
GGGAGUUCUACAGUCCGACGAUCACCACUUAGGUUAGAAAGAAACAGGAAUCAUCCUAGGCAGGAAAAUUACUCCACUUUUUUUUAAGUGUCCUUCCAAUAACUAAUGCCACUCAUCAGCAUUGUCCUCUUUGUGGAAUUCUCGGGUGCCAA: 0.381
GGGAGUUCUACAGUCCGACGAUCGAUUUUUGAAAAGCCUGAAUAAAAUUGGAAAGACUGGAAAGUUAGGAGAACUGACUAGCUAAACUGCUACAGUAUGCAAUUUCUAUUACAAUUGGUAUUACAGGGGGGAAUGGAAUUCUCGGGUGCCAA: 1.16
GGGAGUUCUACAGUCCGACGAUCGGGGGGUUCAAAUGCCAGUGUUGGGCUAGGCCUGGCUAGUAGAAUAGGGUUUAGAUUAUUUGACAGAAGUGCCUCUUAUGCAGACUGCUUCCCUUUGGGUAGCUGUGAUCUGGAAUUCUCGGGUGCCAA: 0.894
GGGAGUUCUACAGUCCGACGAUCACUUCCAAUGCUUCUCUAGGCCCUGCACGUAAGUGAUUUUUCCAGUUCAAAGUCAAGACAGGUAAAAGGGCAUUCAUCAUUGUGCCUCAUAUCAGGUUUUGAUGAAUAUAUGGAAUUCUCGGGUGCCAA: 0.456
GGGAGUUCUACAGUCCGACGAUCCUUCCUCGGGGCUCUCUGCUGCUCUACCAAUUGUGUUGCUUUCCACUUCUUCAGUGAUUCUUCAGUGAUCCUGAGAGACUAACAGCUGGAGACUCUAGCUGGAGCAGUUGUGGAAUUCUCGGGUGCCAA: 0.336

Series 3 — technique: protein-binding microarray; form: double-stranded DNA, one strand shown; sample: in vitro; concentration: 2200 nM top; notes: 60-bp whole probe; together with: salmon DNA 0.4 mg/ml; reference: random background probes; direction: higher = stronger binding; measurement: fitted relative affinity; all sequences stand within: GCCTAGCAC … GTCTTGATTCGCTTGACGCTGCTG
Target: Interferon regulatory factor 7, full length, phosphomimetic (IRF7, Homo sapiens, UniProt Q92985, residues 1-503, S471D/S472D/S475D/S476D/S477D/S483D/S484D/S487D)
Residues (chain): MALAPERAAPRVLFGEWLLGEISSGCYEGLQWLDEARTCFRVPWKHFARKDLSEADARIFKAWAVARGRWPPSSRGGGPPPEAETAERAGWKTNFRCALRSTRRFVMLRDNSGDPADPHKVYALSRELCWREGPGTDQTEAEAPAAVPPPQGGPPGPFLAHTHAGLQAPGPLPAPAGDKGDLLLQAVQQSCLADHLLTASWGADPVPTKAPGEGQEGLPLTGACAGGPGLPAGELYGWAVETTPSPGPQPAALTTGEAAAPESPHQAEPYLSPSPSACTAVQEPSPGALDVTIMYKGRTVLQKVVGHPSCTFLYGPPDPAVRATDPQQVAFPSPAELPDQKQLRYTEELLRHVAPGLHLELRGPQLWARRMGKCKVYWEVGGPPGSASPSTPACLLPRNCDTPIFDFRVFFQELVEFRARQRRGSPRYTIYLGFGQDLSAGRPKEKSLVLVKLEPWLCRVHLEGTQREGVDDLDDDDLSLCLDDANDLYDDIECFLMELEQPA
TCAACAGTTTTATTTTAGACTGTGCTA: 0.183 z-score
TCAAGACTCATAATGGCTAGGTGCTAG: -0.322 z-score
CTGCTAGGGCACACAAGTCAGTGCTAG: -0.908 z-score
TCAGTTTTAGGTCCCTTACTGTGCTAG: 1.68 z-score
GACGGTATAGGGTTTCGGGACGTGCTA: 0.706 z-score
GACGATTTCGGGTTTCGAGTCGTGCTA: 6.83 z-score
GACGGTCTCGACACTGGGGACGTGCTA: -0.431 z-score
AACGGACTGGACACTGGGGACGTGCTA: -0.643 z-score
GACGTTTTCCTTTTCCTGACGTGCTAG: 7.39 z-score
TACATTTTCCAAATGCCCCTGTGCTAG: 2.66 z-score
GACGGACTGGGTCTCAGGACGTGCTAG: -0.926 z-score
GACGGTATCCTTATCCCGACGTGCTAG: 0.954 z-score
TCATCTTTCTACATAGAACTGTGCTAG: 1.83 z-score
CTCAGTTTATTTATTTTTACGTGCTAG: 0.816 z-score
TTAGATCTCAGAATCGATTAGTGCTAG: 0.0531 z-score
GACGAACTGGGGTTTCGAGGCGTGCTA: 0.893 z-score
GTGATGTGAGGGGAGAGGGAGTGCTAG: -0.278 z-score
TTAGGTGTCGGGTTTCGGTTAGTGCTA: 3.13 z-score
TTAGGTCCCGGACTGGGTTAGTGCTAG: -0.834 z-score

Series 4 — technique: Sort-seq; refers to: YFP reporter; sample: E. coli; notes: PhoQ-PhoP variant library; together with: 10 µM Mg2+; reference: high Mg2+ state; direction: higher = stronger signaling; measurement: fold induction
Substance: PhoQ, residues 284 288 289 292 302 303 NLSRDF
PhoP, residues 12 14 15 18 19 SFCSL (Escherichia coli, UniProt P23836): 16.8
PhoP, residues 12 14 15 18 19 AYFRS (Escherichia coli, UniProt P23836): 16
PhoP, residues 12 14 15 18 19 HHYTI (Escherichia coli, UniProt P23836): 3.26
